{"data": "Measured values of several laboratories", "HLA class I histocompatibility antigen, A alpha chain allele A*02:01": "HLA class I histocompatibility antigen, A alpha chain, allele A*02:01 (Homo sapiens, UniProt P04439)", "HLA class I histocompatibility antigen, A alpha chain allele A*26:01": "HLA class I histocompatibility antigen, A alpha chain, allele A*26:01 (Homo sapiens, UniProt P04439)", "HLA class I histocompatibility antigen, A alpha chain allele A*02:03": "HLA class I histocompatibility antigen, A alpha chain, allele A*02:03 (Homo sapiens, UniProt P04439)", "note": "Each line is one published result; not all experiments were run side by side."}
{"SMILES": "CC(C)[C@H](NC(=O)CNC(=O)CNC(=O)[C@@H](NC(=O)[C@H](CO)NC(=O)[C@@H]1CCCN1C(=O)[C@H](C)NC(=O)[C@H](CO)NC(=O)[C@H](CCCCN)NC(=O)[C@@H](N)CCCNC(=N)N)[C@@H](C)O)C(=O)O", "target": "HLA class I histocompatibility antigen, A alpha chain, allele A*02:02 (Homo sapiens, UniProt P04439)", "assay": "binding", "IC50 [nM]": "> 38700"}
{"SMILES": "CC(C)[C@H](NC(=O)[C@@H](N)CCCCN)C(=O)N[C@@H](CC(=O)O)C(=O)N1CCC[C@H]1C(=O)N[C@@H](CCCCN)C(=O)N[C@@H](Cc1ccccc1)C(=O)N[C@H](C(=O)N[C@@H](CO)C(=O)N[C@@H](Cc1ccccc1)C(=O)O)[C@@H](C)O", "target": "HLA class I histocompatibility antigen, A alpha chain allele A*02:01", "assay": "binding", "IC50 [nM]": 29400}
{"SMILES": "CC[C@H](C)[C@H](NC(=O)[C@@H](N)CCC(=O)O)C(=O)N[C@@H](CCCCN)C(=O)N[C@@H](CCC(=O)O)C(=O)N[C@@H](CO)C(=O)N[C@H](C(=O)N[C@@H](CCC(N)=O)C(=O)N[C@H](C(=O)N[C@@H](Cc1ccccc1)C(=O)O)[C@@H](C)O)C(C)C", "target": "HLA class I histocompatibility antigen, A alpha chain allele A*26:01", "assay": "peptide-MHC binding, radioligand competition binding", "IC50 [nM]": 7.8}
{"SMILES": "CC[C@H](C)[C@H](NC(=O)[C@@H]1CCCN1C(=O)[C@H](CC(=O)O)NC(=O)[C@H](CCSC)NC(=O)[C@@H](N)Cc1ccc(O)cc1)C(=O)N1CCC[C@H]1C(=O)N[C@@H](Cc1c[nH]cn1)C(=O)N[C@@H](CCC(N)=O)C(=O)N[C@@H](Cc1ccc(O)cc1)C(=O)O", "target": "HLA class I histocompatibility antigen, A alpha chain, allele A*01:01 (Homo sapiens, UniProt P04439)", "assay": "binding", "IC50 [nM]": 97}
{"SMILES": "CC[C@H](C)[C@H](NC(=O)[C@H](CCCNC(=N)N)NC(=O)CNC(=O)[C@@H](NC(=O)[C@@H]1CCCN1C(=O)[C@@H](N)CCSC)[C@@H](C)CC)C(=O)N[C@@H](C)C(=O)N[C@@H](CCC(=O)O)C(=O)N[C@@H](CS)C(=O)N[C@H](C(=O)N[C@@H](CC(C)C)C(=O)O)[C@@H](C)CC", "target": "HLA class I histocompatibility antigen, A alpha chain allele A*02:03", "assay": "binding, competitor, radioligand competition", "conditions": "two days, room temperature, HLA-A*02:03", "IC50 [nM]": "> 40000"}
{"SMILES": "CC(C)C[C@H](NC(=O)[C@H](Cc1ccc(O)cc1)NC(=O)CNC(=O)[C@@H](N)C(C)C)C(=O)N[C@@H](CCC(N)=O)C(=O)N1CCC[C@H]1C(=O)N[C@@H](CCCNC(=N)N)C(=O)N[C@H](C(=O)N[C@@H](Cc1ccccc1)C(=O)O)[C@@H](C)O", "target": "HLA class I histocompatibility antigen, A alpha chain allele A*02:01", "assay": "peptide-MHC binding, radioligand competition binding", "IC50 [nM]": "> 70000"}
{"SMILES": "CSCC[C@H](NC(=O)[C@@H](N)CCCNC(=N)N)C(=O)N[C@@H](Cc1ccccc1)C(=O)NCC(=O)N1CCC[C@H]1C(=O)N1CCC[C@H]1C(=O)N[C@@H](CC(C)C)C(=O)N[C@H](C(=O)N[C@@H](Cc1ccccc1)C(=O)O)[C@@H](C)O", "target": "HLA class I histocompatibility antigen, A alpha chain, allele A*24:02 (Homo sapiens, UniProt P04439)", "assay": "binding", "IC50 [nM]": 42}
{"SMILES": "CC(C)C[C@H](NC(=O)[C@@H](N)CCC(=O)O)C(=O)N1CCC[C@H]1C(=O)N[C@@H](CC(=O)O)C(=O)N[C@@H](CCC(=O)O)C(=O)N[C@@H](Cc1ccccc1)C(=O)N[C@H](C(=O)N[C@H](C(=O)N[C@H](C(=O)N[C@H](C(=O)N[C@H](C(=O)O)C(C)C)[C@@H](C)O)C(C)C)C(C)C)C(C)C", "target": "HLA class I histocompatibility antigen, A alpha chain allele A*26:01", "assay": "peptide-MHC binding, radioligand competition binding", "IC50 [nM]": 72}
{"SMILES": "CSCC[C@H](NC(=O)[C@H](CCC(=O)O)NC(=O)[C@H](CCC(=O)O)NC(=O)[C@@H](N)CCCNC(=N)N)C(=O)N[C@@H](CCC(=O)O)C(=O)N[C@H](C(=O)N[C@@H](Cc1c[nH]cn1)C(=O)N[C@@H](CCC(=O)O)C(=O)N[C@@H](CC(C)C)C(=O)O)C(C)C", "target": "HLA class I histocompatibility antigen, A alpha chain allele A*02:03", "assay": "binding, competitor, radioligand competition", "conditions": "two days, room temperature, HLA-A*02:03", "IC50 [nM]": "> 40000"}
{"note": "For quick reference, copied from above:"}
{"SMILES": "CSCC[C@H](NC(=O)[C@@H](N)CCCNC(=N)N)C(=O)N[C@@H](Cc1ccccc1)C(=O)NCC(=O)N1CCC[C@H]1C(=O)N1CCC[C@H]1C(=O)N[C@@H](CC(C)C)C(=O)N[C@H](C(=O)N[C@@H](Cc1ccccc1)C(=O)O)[C@@H](C)O", "target": "HLA class I histocompatibility antigen, A alpha chain, allele A*24:02 (Homo sapiens, UniProt P04439)", "assay": "binding", "IC50 [nM]": 42}
